Assay results gathered from unrelated publications.
Each numbered part is a random draw from the data of one study; scales do not carry over between parts. Changes are numbered by the printed parent chain.
Chain of UniProt Q15819 (whole entry, looked up): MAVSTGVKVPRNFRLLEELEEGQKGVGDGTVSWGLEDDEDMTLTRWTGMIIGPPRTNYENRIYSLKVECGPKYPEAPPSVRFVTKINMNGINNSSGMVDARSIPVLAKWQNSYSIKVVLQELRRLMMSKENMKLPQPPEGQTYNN
Chain of UniProt P49427 (whole entry, looked up): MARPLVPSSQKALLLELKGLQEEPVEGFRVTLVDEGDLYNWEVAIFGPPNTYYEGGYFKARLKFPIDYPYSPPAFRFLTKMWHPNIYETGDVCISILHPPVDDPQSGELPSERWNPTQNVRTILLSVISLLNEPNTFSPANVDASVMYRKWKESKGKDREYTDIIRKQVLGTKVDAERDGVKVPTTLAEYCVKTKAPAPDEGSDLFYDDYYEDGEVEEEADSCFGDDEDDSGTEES
Chain of UniProt O14933 (whole entry, looked up): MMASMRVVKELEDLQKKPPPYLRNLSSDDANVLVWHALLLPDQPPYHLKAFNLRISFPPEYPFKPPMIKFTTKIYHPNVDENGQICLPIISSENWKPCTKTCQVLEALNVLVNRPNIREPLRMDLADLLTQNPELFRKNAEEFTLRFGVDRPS
Chain of UniProt P60604 (whole entry, looked up): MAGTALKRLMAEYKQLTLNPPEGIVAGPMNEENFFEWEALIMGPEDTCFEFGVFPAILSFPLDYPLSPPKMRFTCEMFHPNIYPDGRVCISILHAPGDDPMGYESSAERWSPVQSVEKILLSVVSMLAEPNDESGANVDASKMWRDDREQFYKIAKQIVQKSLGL
Chain of UniProt P51965 (whole entry, looked up): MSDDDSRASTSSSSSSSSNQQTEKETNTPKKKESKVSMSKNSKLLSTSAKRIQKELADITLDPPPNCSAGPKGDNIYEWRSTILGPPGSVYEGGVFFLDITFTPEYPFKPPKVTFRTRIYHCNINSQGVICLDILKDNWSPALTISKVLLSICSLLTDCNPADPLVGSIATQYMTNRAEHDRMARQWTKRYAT
Chain of UniProt P62256 (whole entry, looked up): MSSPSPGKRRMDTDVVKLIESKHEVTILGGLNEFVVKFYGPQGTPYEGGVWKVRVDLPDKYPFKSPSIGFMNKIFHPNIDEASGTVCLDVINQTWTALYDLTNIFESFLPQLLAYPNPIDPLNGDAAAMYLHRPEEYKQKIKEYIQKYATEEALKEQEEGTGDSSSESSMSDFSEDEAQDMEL
Chain of UniProt Q5VVX9 (whole entry, looked up): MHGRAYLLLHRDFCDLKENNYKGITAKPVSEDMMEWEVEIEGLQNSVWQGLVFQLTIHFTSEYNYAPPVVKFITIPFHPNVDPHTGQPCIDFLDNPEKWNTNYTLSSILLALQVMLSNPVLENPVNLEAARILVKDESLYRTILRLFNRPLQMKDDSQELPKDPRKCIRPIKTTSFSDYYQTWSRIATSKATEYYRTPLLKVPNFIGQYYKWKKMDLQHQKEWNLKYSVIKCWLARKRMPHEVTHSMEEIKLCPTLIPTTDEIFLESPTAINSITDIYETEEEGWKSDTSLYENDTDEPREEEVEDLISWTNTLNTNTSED
Chain of UniProt Q13404 (whole entry, looked up): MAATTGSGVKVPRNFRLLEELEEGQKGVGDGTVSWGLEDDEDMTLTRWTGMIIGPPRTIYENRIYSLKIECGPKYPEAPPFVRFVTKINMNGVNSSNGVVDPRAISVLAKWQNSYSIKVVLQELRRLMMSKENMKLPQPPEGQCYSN
Chain of UniProt Q8WVN8 (whole entry, looked up): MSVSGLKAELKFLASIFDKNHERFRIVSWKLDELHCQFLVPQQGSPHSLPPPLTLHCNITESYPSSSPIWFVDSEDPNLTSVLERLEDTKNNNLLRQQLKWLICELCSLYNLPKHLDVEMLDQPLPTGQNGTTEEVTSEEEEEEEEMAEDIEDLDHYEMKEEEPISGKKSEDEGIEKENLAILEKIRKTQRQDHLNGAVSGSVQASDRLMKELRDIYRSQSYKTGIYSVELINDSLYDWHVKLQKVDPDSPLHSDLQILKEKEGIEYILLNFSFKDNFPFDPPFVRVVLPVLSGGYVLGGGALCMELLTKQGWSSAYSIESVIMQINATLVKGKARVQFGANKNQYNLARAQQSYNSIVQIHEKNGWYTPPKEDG
Chain of UniProt P61088 (whole entry, looked up): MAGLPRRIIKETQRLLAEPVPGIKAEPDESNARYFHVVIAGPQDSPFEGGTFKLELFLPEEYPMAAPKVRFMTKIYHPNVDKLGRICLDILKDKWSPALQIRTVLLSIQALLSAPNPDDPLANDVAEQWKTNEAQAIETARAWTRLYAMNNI
Chain of UniProt Q96LR5 (whole entry, looked up): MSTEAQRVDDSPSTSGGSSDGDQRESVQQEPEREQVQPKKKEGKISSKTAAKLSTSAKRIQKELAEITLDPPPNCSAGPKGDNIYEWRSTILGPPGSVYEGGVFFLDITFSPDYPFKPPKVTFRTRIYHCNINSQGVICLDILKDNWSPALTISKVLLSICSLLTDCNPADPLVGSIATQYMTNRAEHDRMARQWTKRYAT

Study 1
Target: JUND, bZIP domain (human)
Technique: DHFR protein complementation
Matrix: yeast
Notes: single substitutions, most at no-binding floor
Relative to: wild-type JUN-FOS pair
Direction: higher = stronger binding
Endpoint: binding fitness
Starting sequence: JUN, bZIP domain (human); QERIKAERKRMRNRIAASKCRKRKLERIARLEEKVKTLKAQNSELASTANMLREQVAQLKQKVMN; partner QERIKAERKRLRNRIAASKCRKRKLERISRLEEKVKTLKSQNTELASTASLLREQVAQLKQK
V56A: -1.1 natural log
A29V: -1.05 natural log
S43A: -0.401 natural log
K36V: -0.95 natural log
T48L: -0.705 natural log
K34Y: -0.809 natural log
R53H: -1.13 natural log
K39H: -0.867 natural log
Q58A: -0.683 natural log
E44K: -0.887 natural log
A29N: -0.787 natural log
R30G: -0.812 natural log
K34D: -0.852 natural log
T37V: -0.629 natural log
M51C: -0.841 natural log
Q55K: -0.917 natural log
Q41A: -0.755 natural log
E44T: -0.947 natural log
Q41N: -1.18 natural log
M51Y: -0.734 natural log
A49V: -0.0372 natural log
M51N: -0.671 natural log
E32A: -0.781 natural log
A29S: -0.84 natural log
A29W: -0.978 natural log

Study 2
Sequence: B1 (TRIM72 RING domain)
Technique: yeast two-hybrid
Matrix: yeast
Notes: mostly zero background
Relative to: not given
Direction: higher = stronger interaction
Endpoint: lacZ reporter activity
B1: TRIM72 RING domain (UniProt Q6ZMU5); chain APGLLHQELSCPLCLQLFDAPVTAECGHSFCRACLGRVAGEPAADGTVLCPCCQAPTRPQALST
UBE2E1 UBC core domain (UniProt P51965): 0
UBE2V1 UBC core domain (UniProt Q13404): 0
UBE2G2 UBC core domain (UniProt P60604): 0
UBE2H UBC core domain (UniProt P62256): 0
UBE2U UBC core domain (UniProt Q5VVX9): 7970
UBE2N UBC core domain (UniProt P61088): 0
UBE2V2 UBC core domain (UniProt Q15819): 0
UBE2Q2 UBC core domain (UniProt Q8WVN8): 0
UBE2L6 UBC core domain (UniProt O14933): 0
UBE2E2 UBC core domain (UniProt Q96LR5): 0
CDC34 UBC core domain (UniProt P49427): 0

Study 3
Target: RING finger protein unkempt homolog, zinc fingers 1-6, SBP tag (UNK, Homo sapiens, UniProt Q9C0B0, residues 30-357)
Chain of UniProt Q9C0B0 (30-357, looked up): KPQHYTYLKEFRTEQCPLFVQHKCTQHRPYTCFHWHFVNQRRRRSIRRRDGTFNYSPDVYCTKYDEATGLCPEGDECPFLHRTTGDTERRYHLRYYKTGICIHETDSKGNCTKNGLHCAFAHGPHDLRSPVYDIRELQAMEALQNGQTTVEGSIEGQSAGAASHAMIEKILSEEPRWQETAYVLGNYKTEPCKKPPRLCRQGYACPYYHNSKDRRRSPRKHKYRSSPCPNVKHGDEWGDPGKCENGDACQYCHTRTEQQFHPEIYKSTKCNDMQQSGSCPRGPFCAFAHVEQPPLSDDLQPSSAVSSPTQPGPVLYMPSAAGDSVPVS
Technique: RNA Bind-n-Seq
Form: RNA
Matrix: in vitro
Tested at: 100 nM
Notes: RNA with constant flanks, vertebrate orthologous sites, ends assumed
Relative to: input RNA pool
Direction: higher = stronger binding
Endpoint: bound/input enrichment
All sequences stand within: GGGAGUUCUACAGUCCGACGAUC … CAACAGAGGAUUGAGCAUCA
CCUCAGAUCUAAGCCAACAGCAGUUCUAAAAUACUAUUUAUUUGUCUGUAAGUUUGUACAUAGUAAUAUCAACCUCAUAUUGUUGCAGUUUUUUUUUUCCAUGUUGUGUUUUGUUUUAAA: 0.896 ratio
UUAAACUUCUUUUUUUUAAUUUAAUUUUUUCCUUUCAGGGGUAAAGUUUGCUUUACCAAAUAGUGAUUGUAACAGAUUGAUCUGUUUUGGAUGUUGCUAUAGUGACAUGCAGUUCUAUAU: 1.76 ratio
CAUAUCCUUGUUACUGUGAUAUUUAAAAUAUCCACAGUGUCCACCUUUUCCAAAAGAUUCUAGUAAUGAUCUAGAAAUAUCUUUCUCUUAUCUGUUAUUUAUCAAUUUUUCCCAGUAUUU: 0.812 ratio
UUUUAUUGAUCAGGUCUGUAAAUGUGUACUAAAAAAAUCAGAGAUUAUUUAUAAGCAAAAUAGUUUAUUUAAAGAGAAUAGUUCUUGUCAGUUUUGUGGUAUGCAUUGAUUCCAUUUGUU: 0.282 ratio
CCUCCUGAACUUCUCUUGCUUUCAAGCUGUGGCUGUUUCAGAUACUGGUUUUAUUUUCUUUGCAGUUUUCCCCUGUCCCACCUUUCUCCCCUUCUUUCCAAGGUUUGACUCAUGGAUUGU: 1.16 ratio
AAUCAAUAGAAUUAUAUAAUAGUAAAGUUGCUAUUGAAAGGAUAUCCAAGUAUGUGUUUGUAGUUACUAAAAAAAAACCAAUUAUAGCUGUUAUUGCCUUGUAUUUAUAGCCCUCGUUUC: 1.7 ratio
GGGUGGCCGGUGGGGGAAUCCCAUGCCCUGGCCUUGCCUCCCCUCCCUGCCACCCGCUCCUAGUUAUUAUUUUUUAACCACCAUGUGAUUAAGGUCGGCGCUGCCUCCCCCGACCCGCUC: 1.41 ratio
UGCAUUACUUGACCAGAGUUGAGGUGACAGAAUUUGAAGACAUCAAAUCAGGUUACAGAAUAGAUUUUUAUUUUGAUGAGAAUCCCUACUUUGAAAAUAAAGUUCUCUCCAAAGAGUUUC: 0.514 ratio

Study 4
Target: ABI1, truncated, D143A, DHFR fusion (Arabidopsis thaliana)
Technique: DHFR PCA, deep sequencing
Matrix: yeast
Notes: methotrexate growth selection, single substitutions
Added: (+)-ABA 710 µM
Relative to: wild-type fitted maximum
Direction: higher = stronger binding
Endpoint: relative binding score
Starting sequence: PYL1, truncated, DHFR fusion (Arabidopsis thaliana); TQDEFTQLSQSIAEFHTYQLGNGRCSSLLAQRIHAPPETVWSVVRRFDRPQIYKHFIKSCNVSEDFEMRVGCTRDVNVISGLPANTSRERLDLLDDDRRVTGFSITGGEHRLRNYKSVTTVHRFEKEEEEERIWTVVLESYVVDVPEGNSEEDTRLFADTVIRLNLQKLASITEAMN
M68W: 91.1%
S117R: 1.54%
F5K: 105%
W41C: -1.38%
H55T: 104%
R90I: 94.6%
E151P: 98.9%
R132I: 109%
T101V: 107%
M68P: 97.1%
I12K: 90.8%
H16A: 30.2%
G102C: 75.5%
L94Y: 105%
F15C: 86.1%
E14C: 96.5%
S59M: 95.9%
F5A: 100%
P50D: 2.29%

Some of these lines once more (study 1):
Q58A: -0.683 natural log
M51Y: -0.734 natural log
Q41N: -1.18 natural log
K39H: -0.867 natural log
V56A: -1.1 natural log
S43A: -0.401 natural log
A29W: -0.978 natural log
R53H: -1.13 natural log
M51C: -0.841 natural log
A29N: -0.787 natural log
